Measurements collected from several papers.
Protocols differ between the studies behind these lines.
Target: Ephrin type-A receptor 2 (EPHA2, Homo sapiens, UniProt P29317)
UniProt P29317, sequence (whole entry, looked up): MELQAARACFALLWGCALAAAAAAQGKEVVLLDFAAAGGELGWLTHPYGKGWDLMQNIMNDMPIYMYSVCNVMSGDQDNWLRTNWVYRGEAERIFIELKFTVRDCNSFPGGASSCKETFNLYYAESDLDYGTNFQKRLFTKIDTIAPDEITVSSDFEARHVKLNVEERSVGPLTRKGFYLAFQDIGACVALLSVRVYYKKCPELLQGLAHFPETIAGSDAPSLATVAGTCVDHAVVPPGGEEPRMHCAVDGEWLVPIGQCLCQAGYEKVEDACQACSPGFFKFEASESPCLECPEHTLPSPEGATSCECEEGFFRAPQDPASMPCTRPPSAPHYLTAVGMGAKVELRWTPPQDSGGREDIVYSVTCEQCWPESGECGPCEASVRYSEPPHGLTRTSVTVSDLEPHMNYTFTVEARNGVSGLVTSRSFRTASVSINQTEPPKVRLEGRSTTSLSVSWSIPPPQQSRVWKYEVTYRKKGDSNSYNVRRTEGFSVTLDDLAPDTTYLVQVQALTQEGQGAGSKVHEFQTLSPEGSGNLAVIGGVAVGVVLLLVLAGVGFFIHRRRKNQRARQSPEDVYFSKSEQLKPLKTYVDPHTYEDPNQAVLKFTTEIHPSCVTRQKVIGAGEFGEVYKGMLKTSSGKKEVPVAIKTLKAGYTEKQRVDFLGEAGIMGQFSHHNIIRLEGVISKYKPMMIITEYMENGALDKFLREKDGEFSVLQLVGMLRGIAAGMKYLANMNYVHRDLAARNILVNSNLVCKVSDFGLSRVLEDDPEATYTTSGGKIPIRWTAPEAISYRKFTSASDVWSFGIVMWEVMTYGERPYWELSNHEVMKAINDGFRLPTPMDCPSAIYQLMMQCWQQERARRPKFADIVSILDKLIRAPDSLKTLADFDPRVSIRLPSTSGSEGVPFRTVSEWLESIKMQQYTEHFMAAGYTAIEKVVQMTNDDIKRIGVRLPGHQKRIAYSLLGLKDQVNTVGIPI

Nc1ccc(/C=C/C(=O)N2CCc3c(oc4c(-c5ccc(F)cc5)cc(-c5ccc(C(=O)N6CCC(F)(F)CC6)cn5)cc34)C2)cn1 — remaining binding (binding, competition with immobilised ligand; 1 µM): 100%
CCOC(=O)[C@@H]1Cc2c(cc([N+](=O)[O-])cc2[N+](=O)[O-])[C@H](O)[C@]12C(=O)Nc1ccc(Br)cc12 — remaining binding (binding, competition with immobilised ligand; 0.1 µM): 100%
CC(C)[C@H]1NC(=O)C[C@H]2/C=C/CCSSC[C@@H](NC1=O)C(=O)N[C@H](Cc1cccc3ccccc13)C(=O)NCC(=O)O2 — inhibition (enzyme activity, inhibitor; 10 µM): -1.1%
CCn1nc(Cl)c2c1-c1cnc(N)c(c1)O[C@H](C)c1cc(F)ccc1-c1nn(C)cc1C2 — selectivity ratio (kinase activity, inhibitor; baseline: IC50 EPHA2 over IC50 ALK): 185 fold
N[C@H](C(=O)N1CCCC1)C1CCN(c2nccc3c(-c4ncc(Cl)cc4Cl)cccc23)CC1 — inhibition (kinase activity, inhibitor; 10 µM, together with: ATP 1 mM): 11.7%
C[C@H](NCc1ccc(-c2ccc(C(F)(F)F)cc2)cc1)C(N)=O — inhibition (cell-free assay, competition with immobilised ligand; 1 µM): 15%
CS(C)(=O)=Nc1ccc(-c2ccc(-c3nc4cc(O[C@@H]5CO[C@H]6[C@@H]5OC[C@H]6O)[nH]c4cc3F)cc2)cc1 — inhibition (enzyme activity, inhibitor; 10 µM): 8%
O=C1NC(=O)c2c1c1cc(F)c[n+]3c1c1c2c2cc(O)ccc2[n]1[Ru-4]312([N]=C=S)[S+]3CC[S+]1CC[S+]2CC3 (centres unmarked) — remaining activity (enzyme activity; 100 nM, human enzyme, together with: 10 µM ATP; baseline: untreated): 99%

A few entries again:
CCn1nc(Cl)c2c1-c1cnc(N)c(c1)O[C@H](C)c1cc(F)ccc1-c1nn(C)cc1C2 — selectivity ratio (kinase activity, inhibitor; baseline: IC50 EPHA2 over IC50 ALK): 185 fold
